Published values gathered from unrelated publications.
Each line is one published result; not all experiments were run side by side. ± gives the spread as reported.

CC(C)C[C@H](NC(=O)[C@@H](CCCCNC(=O)[C@@H](Cc1ccccc1)NC(=O)CCCCCCCNC(=O)CN1CCN(CC(=O)O)CCN(CC(=O)O)CCN(CC(=O)O)CC1)NC(=O)[C@H](Cc1ccc(O)cc1)NC(=O)[C@H](CO)NC(=O)[C@H](Cc1c[nH]c2ccccc12)NC(=O)[C@H](Cc1c[nH]cn1)NC(=O)[C@@H]1CCC(=O)N1)C(=O)N[C@@H](CCCNC(=N)N)C(=O)N1CCC[C@H]1C(=O)NCC(N)=O [indium-111 labelled] — tissue uptake (biodistribution; male athymic nude mice, DU-145 prostate cancer xenograft, spleen; intravenous, 0.037 MBq, 2 h post-injection): 0.33 ± 0.24 %ID/g
O=C([O-])CN1CCN(CC(=O)[O-])CCN(CC(=O)NC[C@H]2CC[C@H](C(=O)N[C@H](Cc3cnc4ccccc4c3)C(=O)NCCCC[C@H](NC(=O)N[C@@H](CCC(=O)O)C(=O)O)C(=O)O)CC2)CCN(CC(=O)[O-])CC1.[64Cu+2] — tissue uptake (ex vivo gamma counting; 22Rv1 tumour-bearing mice, kidney; intravenous, 0.74 MBq, 24 h post-injection): 9.86 %ID/g
COc1ccc2c(c1)C(C)(C)C(/C=C/C1=C(Oc3ccc(C(=O)NCCCCOc4cc(CN(Cc5ccccn5)Cc5ccccn5)cc(CN(Cc5ccccn5)Cc5ccccn5)c4)cc3)C(=C/C=C3/N(CCCCS(=O)(=O)[O-])c4ccc(OC)cc4C3(C)C)CCC1)=[N+]2CCCCS(=O)(=O)[O-].O=[N+]([O-])[O-].O=[N+]([O-])[O-].[99Tc+].[C-]#[O+].[C-]#[O+].[C-]#[O+].[Zn+2] — tissue uptake (BALB/c mice, S. aureus myositis, liver; 12 h post-injection): 21.1 %ID/g
CCCC[C@H](NC(=O)CCCCCCCNC(=O)CN1CCN(CC(=O)O)CCN(CC(=O)O)CC1)C(=O)N[C@H]1CC(=O)NCCCC[C@@H](C(N)=O)NC(=O)[C@H](Cc2c[nH]c3ccccc23)NC(=O)[C@H](CCCNC(=N)N)NC(=O)[C@@H](Cc2ccccc2)NC(=O)[C@H](Cc2c[nH]cn2)NC1=O [fluorine-18 labelled] — tissue uptake (C57 mice B16/F10 melanoma, intestines; intravenous, 1 h, added: NDP-MSH 10 µg blockade): 2.27 ± 0.5 %ID
COc1ccc(Nc2nc(Nc3ccc(OCCOCC[18F])cc3)ncc2Br)cc1 — tissue uptake (ICR mice, S180 tumour-bearing, liver; intravenous, 370 kBq, 60 min): 2.36 ± 0.46 %ID/g
CCCC[C@H](NC(=O)COCCOCCNC(=O)CN1CCN(CC(=O)O)CCN(CC(=O)O)CC1)C(=O)N[C@H]1CC(=O)NCCCC[C@@H](C(N)=O)NC(=O)[C@H](Cc2c[nH]c3ccccc23)NC(=O)[C@H](CCCNC(=N)N)NC(=O)[C@@H](Cc2ccccc2)NC(=O)[C@H](Cc2c[nH]cn2)NC1=O [fluorine-18 labelled] — tissue uptake (C57 mice B16-F10 melanoma, brain; intravenous, 0.37 MBq, 2 h): 0.01 ± 0.03 %ID/g
Cc1cc(C)n(CCN(CCN)CCCCCCNC(=O)[C@@H](N)Cc2c[nH]cn2)n1.[99Tc+].[C-]#[O+].[C-]#[O+].[C-]#[O+] — tissue uptake (BALB/c nude mice A549 xenograft, blood; intravenous, 15 min): 2.8 ± 1 %ID/g
N#C[C@@H]1CCCN1C(=O)CNC(=O)c1ccnc2ccc(OCCCN3CCN(C(=O)CCc4ccc(O)c(CN5CCN6CC(=O)[O][Al-]([18F])([O]C(=O)C5)[O]c5ccc(CCC(=O)N7CCN(CCCOc8ccc9nccc(C(=O)NCC(=O)N%10CCC[C@H]%10C#N)c9c8)CC7)cc5C6)c4)CC3)cc12 (some centres unmarked) — tissue uptake (BALB/c nude mice, U-87 MG xenograft, spleen; 1 h, blocking, added: DOTA-FAPI-04 40 nmol/mouse co-injected): 1.29 ± 0.15 %ID/g
Cc1cc(C)n(CCN(CCN)CCCCCCNC(=O)[C@@H](N)Cc2c[nH]c3ccccc23)n1.[99Tc+].[C-]#[O+].[C-]#[O+].[C-]#[O+] — tissue uptake (BALB/c nude mice, A549 xenograft, heart; intravenous, 15 min): 1.13 ± 0.13 %IA/g
CCCC[C@H](NC(=O)CNC(=O)CNC(=O)[C@H](CCCCNC(=O)[C@H](CC(=O)O)NC(=O)C(C)c1ccc(CC(C)C)cc1)NC(=O)CN1CCN(CC(=O)O)CCN(CC(=O)O)CCN(CC(=O)O)CC1)C(=O)N[C@H]1CC(=O)NCCCC[C@@H](C(N)=O)NC(=O)[C@H](Cc2c[nH]c3ccccc23)NC(=O)[C@H](CCCNC(=N)N)NC(=O)[C@@H](Cc2ccccc2)NC(=O)[C@H](Cc2c[nH]cn2)NC1=O (some centres unmarked) [lutetium-177 labelled] — tissue uptake (C57 mice, tumour-bearing, lung; 2 h): 0.9 ± 0.24 %ID/g
O=C(NCC1OC2CCC=CCCC2O1)c1ccc([18F])nc1 (centres unmarked) — tissue uptake (healthy female BALB/c nude mice, stomach; intravenous, 7.4 MBq per mouse, 10 min): 4.5 ± 1.4 %ID/g

Excerpt of the above:
CCCC[C@H](NC(=O)CCCCCCCNC(=O)CN1CCN(CC(=O)O)CCN(CC(=O)O)CC1)C(=O)N[C@H]1CC(=O)NCCCC[C@@H](C(N)=O)NC(=O)[C@H](Cc2c[nH]c3ccccc23)NC(=O)[C@H](CCCNC(=N)N)NC(=O)[C@@H](Cc2ccccc2)NC(=O)[C@H](Cc2c[nH]cn2)NC1=O [fluorine-18 labelled] — tissue uptake (C57 mice B16/F10 melanoma, intestines; intravenous, 1 h, added: NDP-MSH 10 µg blockade): 2.27 ± 0.5 %ID
COc1ccc(Nc2nc(Nc3ccc(OCCOCC[18F])cc3)ncc2Br)cc1 — tissue uptake (ICR mice, S180 tumour-bearing, liver; intravenous, 370 kBq, 60 min): 2.36 ± 0.46 %ID/g
